Measurements collected from several papers.
Each line is one published result; not all experiments were run side by side. “And” joins repeats or separate records; there may be more than shown. Numbers after ± are the reported error.

Cc1c(C)c2c(c(C)c1O)CCC(C)(COc1ccc(CC3SC(=O)NC3=O)cc1)O2 (centres unmarked)
point of departure (HepG2; MTT, item: MTT response; 24 h, distribution mode 1): 0.339 µM

CCn1cc(-c2cc(Cn3ccoc3=N)cc3c2CCN([C@@H](C)c2cc(OC)ccn2)C3=O)c(C(F)(F)F)n1
EC50 (NUGC-3; cell growth, inhibitor; 120 h): 0.0077 µM

Cn1cc(-c2ccc(-c3cncc(Cl)c3N3CCC4(CCNC4=O)CC3)cc2)cn1
log2 fold change (COLO 205; gene expression, microarray, item: PRDM8 mRNA; concentration not given, 6 h; relative to: untreated cells): 4.13

N#Cc1ccnc(Nc2cc(C3CCN(C4COC4)CC3)cc(N3CCC(F)(F)C3)n2)c1
inhibition (THP-1; pyroptotic LDH release; 2 µM, 40 min, with: LPS then nigericin): 32.3%

CC(C)c1nc(CN(C)C(=O)N[C@@H](CCN2CCOCC2)C(=O)N[C@H](CC[C@H](Cc2ccccc2)NC(=O)OCc2cncs2)Cc2ccccc2)cs1
EC50 (HEK293T ATF4-FLuc reporter; ATF4 reporter gene, activator, luciferase reporter): > 9.96 µM

CCNC(=O)/C=C/c1cccc(Br)c1
inhibition (THP-1; pyroptotic LDH release; 2 µM, 40 min, with: LPS then nigericin): 20.8%

O=C(/C=C/C=C/C=C/C1CCCCC1)NC1=C[C@@](O)(/C=C/C=C/C=C/C(=O)NC2=C(O)CCC2=O)[C@@H]2O[C@@H]2C1=O
GI50 (NCI-H1944; cell growth, CellTiter-Glo; 78 h): 24.8 µM

COc1ccc(C(=O)c2ccccc2)c(O)c1
inhibition (THP-1; pyroptotic LDH release; 2 µM, 40 min, with: LPS then nigericin): -5.05%

CCSCc1ccc2c(c1)c1c3c(c4c5cc(CSCC)ccc5n5c4c1n2[C@H]1C[C@](O)(C(=O)OC)[C@]5(C)O1)CNC3=O
EC50 (HEK293T ATF4-FLuc reporter; ATF4 reporter gene, activator, luciferase reporter): 1.5 µM

O=C1c2ccccc2C(=O)C1c1ccccc1
inhibition (THP-1; pyroptotic LDH release; 2 µM, 40 min, with: LPS then nigericin): 18.3%

O=C(O)/C=C/c1ccc(O)c(O)c1
IL-1β level (coculture, Caco-2, THP-1; ELISA; 50 ng/mL, 8 h, with: LPS, IFNγ, ATP; relative to: untreated control): 5.8 ± 8.1 fold change

C[C@H]1Oc2cc(cnc2N)-c2c(nn(C)c2C#N)CN(C)C(=O)c2ccc(F)cc21
Emax (Ba/F3 EML4-ALK variant 1 L1196Q; cell viability): 100%

CCOC(=O)c1nn(-c2ccccc2)c(C#N)c1NC(=O)c1nn(CC)cc1F
inhibition (human monocytes; phagocytosis of anti-D RBCs; 5 µM, lab-synthesized sample): < 0.5%

Nc1ccnc(-c2ccccc2)c1
DQ-BSA dequenching (TMEM175 knockout MEFs; concentration not given): no effect

COc1cc(/C=C/C(=O)O)ccc1O
IL-1β level (coculture, Caco-2, THP-1; ELISA; 100 ng/mL, 8 h, with: LPS, IFNγ, ATP; relative to: untreated control): 10.1 ± 1.5 fold change

C=Cc1c2[n-]c(c1C)/C=c1\[n-]/c(c(C)c1C=C)=C\c1[n-]c(c(CCC(=O)O)c1C)/C=c1\[n-]c(c(C)c1CCC(=O)O)=C2.[Sn+4]
fold change (SH-SY5Y; RNA-seq, item: SPOCD1 mRNA; 5 µM, 5 h; relative to: untreated cells): 5.29

CCCCOc1ccc(OCCCN2CCOCC2)cc1
inhibition (THP-1; pyroptotic LDH release; 2 µM, 40 min, with: LPS then nigericin): 25.5%

COc1cnc2cccc(N3CCc4c(cc(Cn5ccnc5C)cc4-c4cn(C)nc4C(F)(F)F)C3=O)c2c1
EC50 (SNU-423; cell growth, inhibitor; 120 h): > 30 µM

O=C(O)CCc1ccc(O)c(O)c1
IL-1β level (coculture, Caco-2, THP-1; ELISA; 1000 ng/mL, 8 h, with: LPS, IFNγ, ATP; relative to: untreated control): 6.4 ± 1.1 fold change

COc1ccc(OC)c(-c2nc3ccc(-c4nc5ccc(N6CCN(C)CC6)cc5[nH]4)cc3[nH]2)c1
growth percent (RXF 393; SRB; 10 µM, 48 h): 69.8%

CC(C)(C)OC(=O)N1CCC(CNC(=O)c2cnc(Nc3cccc(Cl)c3)nc2C(F)(F)F)CC1
EC50 (HEK293T ATF4-FLuc reporter; ATF4 reporter gene, activator, luciferase reporter): > 9.96 µM

CCCCN1CCN(c2ccc3[nH]c(-c4ccc5[nH]c(-c6ccc(OCC)c(OCC)c6)nc5c4)nc3c2)CC1
growth percent (OVCAR-8; SRB; 10 µM, 48 h): -11.9%

Clc1ccc(C(Cn2ccnc2)OCc2ccc(Sc3ccccc3)cc2)c(Cl)c1 (centres unmarked)
inhibition (THP-1; pyroptotic LDH release; 2 µM, 40 min, with: LPS then nigericin): 1.49%

O=C(O)CCc1ccc(O)cc1
IL-1β level (coculture, Caco-2, THP-1; ELISA; 50 ng/mL, 8 h, with: LPS, IFNγ, ATP; relative to: untreated control): 7.6 ± 1.1 fold change

OC[C@@H](O)[C@@H](O)CO
inhibition (THP-1; pyroptotic LDH release; 2 µM, 40 min, with: LPS then nigericin): 30%

COC(=O)CNC(=O)C(=O)OC
H3K4me3 level (MDA-MB-231, ARNT knockout or control; immunoblot; concentration not given, 12 h): increased

CCNc1ncn(Cc2ccc(OC)c(OC3CCCC3)c2)c2nc(C(C)C)nc1-2
EC50 (HEK293T ATF4-FLuc reporter; ATF4 reporter gene, activator, luciferase reporter): > 9.96 µM

CCn1cc(-c2cc(Cn3ccnc3)cc3c2CCN([C@H](c2cc(OC)ccn2)C2CC2)C3=O)c(C(F)(F)F)n1
EC50 (COV434; cell growth, inhibitor; 120 h): > 30 µM

COc1ccc(NC(=S)N/N=C/c2cccc3cc4ccccc4nc23)cc1
necrotic cells (HeLa; annexin V/PI flow cytometry; concentration not given, 48 h, with: N-acetylcysteine): 3.2 ± 0.13%

C=CC(=O)Nc1cc(Nc2ncc(C(=O)OC(C)C)c(-c3cn(C)c4ccccc34)n2)c(OC)cc1N(C)CCN(C)C
selectivity ratio (NCI-H2073 EGFR SVD knock-in; cell proliferation, CellTiter-Glo; relative to: knock-in over parental NCI-H2073): 0.7

O=C(O)c1cc(O)c(O)c(O)c1
kynurenine level (Caco-2/THP-1 co-culture; 0.5 µg/mL, with: LPS 500 ng/mL): 129 ± 13.5 % change

C=CC(=O)N1CCC(Oc2cc3c(Nc4ccc(Cl)c(Cl)c4F)ncnc3cc2OC)CC1
inhibition (THP-1; pyroptotic LDH release; 2 µM, 40 min, with: LPS then nigericin): -3.34%

CC(C)(C)NC(=O)c1cncn1C1CCN(c2ccc(-c3nnc(C(F)(F)F)o3)cn2)CC1
mRNA level (HDMEC; qPCR, item: TSC22D2; concentration not given, unit not given; relative to: DMSO): 1.38

Cn1cc(Nc2nccc(-c3ccc4c(c3)CN(C3COC3)CC[C@H]4NC(=O)c3cn(C(C)(C)C)nn3)n2)cn1
pathway activation z-score (mouse splenic B cells; item: IL-15 signalling; 30 mg/kg, IgD-activated in vivo; relative to: vehicle, direction not given): 1.16

CC/C(=N\NC(=O)NCc1cccc(O)c1)c1ccc(O)c(C)c1O
YAP protein level (SK-OV-3; Western blot; 2D culture; 20 µM, 1 h, unit not given; relative to: β-actin): 1.65 ± 0.36

O=c1c(O)c(-c2ccc(O)cc2)oc2cc(O)cc(O)c12
transepithelial electrical resistance (Caco-2/THP-1 co-culture; TEER; 0.25 µg/mL, with: LPS 250 ng/mL; relative to: control): 88.2 ± 1.4%

O=C(NC1CC1)c1cc2c(s1)-c1ccccc1N(C(=O)c1ccc(NC(=O)c3cccnc3N3CCC4(CC3)COC4)cc1)CC2
EC50 (HEK293T ATF4-FLuc reporter; ATF4 reporter gene, activator, luciferase reporter): 7.05 µM

COc1cc(-c2oc3cc(O)cc(O)c3c(=O)c2O)ccc1O
transepithelial electrical resistance (Caco-2/THP-1 co-culture; TEER; concentration not given, with: LPS 250 ng/mL; relative to: control): 98.3 ± 3.1%

CCn1c(=O)/c(=C2\Sc3ccccc3N2C)s/c1=C/c1cccc[n+]1CC
EC50 (HEK293T ATF4-FLuc reporter; ATF4 reporter gene, activator, luciferase reporter): 3.89 µM

C=C1C(=O)O[C@H]2[C@H]1CC/C(C)=C/CC[C@@]1(C)O[C@@H]21
MyBP-C level change (human iPSC cardiomyocytes; plate-normalised; concentration not given, hit retest; relative to: vehicle controls, SDs below control): 14.4 SD

O=C(O)c1cc(O)c2c(c1)C(=O)c1cccc(O)c1C2=O
viability (HK-2 co-cultured with HepaRG; MTT; 16.67 µM, 48 h; relative to: untreated control): 61.5 ± 6.82%

Cc1ccc(CNC(=O)Cn2cc(CSc3nc4ccccc4[nH]3)nn2)cc1
cytotoxicity (Caco-2; MTT; 31.3 ppm): 71.7%

C[C@H]1[C@H](C)CC[C@]2(C)CC[C@]3(C)C(=CC(=O)[C@@H]4[C@@]5(C)CC[C@@H](O)[C@](C)(C(=O)NCc6cn(-c7cccc(Br)c7)nn6)[C@@H]5CC[C@]43C)[C@H]12
CD8+ T cells (human PBMCs, ConA-activated; flow cytometry; 5 µM, 24 h; relative to: T cells): 39%

Cc1cc(=O)[nH]n1-c1nc(-c2ccc(Cl)cc2)c2c(NC(=O)c3ccccc3)nnc-2[nH]1
cell growth (SF-268; SRB; 10 µM, NCI60 single-dose screen; relative to: untreated): 92.7%

c1ccc2[nH]ccc2c1
mRNA level, LS mean (HCT-8; RNA-seq, item: SERPINF1; concentration not given): 1.64 counts per million

COCCN(C)CCOc1ccc2[nH]c(-c3cc4ccccc4[nH]c3=O)cc2c1
EC50 (HEK293T ATF4-FLuc reporter; ATF4 reporter gene, activator, luciferase reporter): 3.26 µM

CCc1c(-c2ccccc2)c(-c2ccccc2)nn1-c1ccccc1-c1cccc(OCC(=O)O)c1
mRNA level (mouse osteoclasts; RT-qPCR, item: c-fos; 1 µM, unit not given, with: M-CSF plus RANKL; relative to: bone marrow macrophages): 3.12 and 3.18 and 3.2

Nc1cccc2c1C(=O)N(C1CCC(=O)NC1=O)C2=O (centres unmarked)
viability (MM1.S; XTT; 0.4 µM): 64% and 49% and 36%

COc1cc2c(c(O)c1OC)C(=O)c1c(cc(C)c(O)c1OC)C2=O
cell viability (HK-2 co-cultured with HepaRG; MTT; 33.33 µM, 48 h; relative to: untreated control): 63.7 ± 7.75%

Cc1cc(C#N)cc(C)c1Oc1nc(Nc2ccc(C#N)cc2)nc2[nH]ccc12
EC50 (HEK293T ATF4-FLuc reporter; ATF4 reporter gene, activator, luciferase reporter): > 9.96 µM

CC(=O)c1c(O)c(C)c(O)c2c1OC1=CC(=O)C(C(C)=O)C(=O)C12C (single isomer, unassigned; (+))
IC50 (hepatocytes, iPSC-derived, line L2; cell viability; 48 h): 8 µM

O=C(O)CCc1cc(C(=O)c2ccc(OC3CCCC3)cc2O)ccc1OCc1ccc2c(=O)[nH]oc2c1
ED50 (UMSCC1 CSCs, ALDH-high, CD44-high; tumorsphere formation): 6.97 µM

COc1cc(/C=C/C(=O)N2CCC=CC2=O)cc(OC)c1OC
mRNA level (MDA-MB-468; quantitative RT-PCR, item: Bcl-xL; 30 µM, 8 h; relative to: untreated): 31.8 ± 2.3%

A few entries again:
C=C1C(=O)O[C@H]2[C@H]1CC/C(C)=C/CC[C@@]1(C)O[C@@H]21
MyBP-C level change (human iPSC cardiomyocytes; plate-normalised; concentration not given, hit retest; relative to: vehicle controls, SDs below control): 14.4 SD

O=C(O)c1cc(O)c2c(c1)C(=O)c1cccc(O)c1C2=O
viability (HK-2 co-cultured with HepaRG; MTT; 16.67 µM, 48 h; relative to: untreated control): 61.5 ± 6.82%

Cc1ccc(CNC(=O)Cn2cc(CSc3nc4ccccc4[nH]3)nn2)cc1
cytotoxicity (Caco-2; MTT; 31.3 ppm): 71.7%

C[C@H]1[C@H](C)CC[C@]2(C)CC[C@]3(C)C(=CC(=O)[C@@H]4[C@@]5(C)CC[C@@H](O)[C@](C)(C(=O)NCc6cn(-c7cccc(Br)c7)nn6)[C@@H]5CC[C@]43C)[C@H]12
CD8+ T cells (human PBMCs, ConA-activated; flow cytometry; 5 µM, 24 h; relative to: T cells): 39%

Cc1cc(=O)[nH]n1-c1nc(-c2ccc(Cl)cc2)c2c(NC(=O)c3ccccc3)nnc-2[nH]1
cell growth (SF-268; SRB; 10 µM, NCI60 single-dose screen; relative to: untreated): 92.7%
